Measurements of several laboratories.
A part holds a random share of what one study measured.
Chain of UniProt Q9UM73 (whole entry, looked up): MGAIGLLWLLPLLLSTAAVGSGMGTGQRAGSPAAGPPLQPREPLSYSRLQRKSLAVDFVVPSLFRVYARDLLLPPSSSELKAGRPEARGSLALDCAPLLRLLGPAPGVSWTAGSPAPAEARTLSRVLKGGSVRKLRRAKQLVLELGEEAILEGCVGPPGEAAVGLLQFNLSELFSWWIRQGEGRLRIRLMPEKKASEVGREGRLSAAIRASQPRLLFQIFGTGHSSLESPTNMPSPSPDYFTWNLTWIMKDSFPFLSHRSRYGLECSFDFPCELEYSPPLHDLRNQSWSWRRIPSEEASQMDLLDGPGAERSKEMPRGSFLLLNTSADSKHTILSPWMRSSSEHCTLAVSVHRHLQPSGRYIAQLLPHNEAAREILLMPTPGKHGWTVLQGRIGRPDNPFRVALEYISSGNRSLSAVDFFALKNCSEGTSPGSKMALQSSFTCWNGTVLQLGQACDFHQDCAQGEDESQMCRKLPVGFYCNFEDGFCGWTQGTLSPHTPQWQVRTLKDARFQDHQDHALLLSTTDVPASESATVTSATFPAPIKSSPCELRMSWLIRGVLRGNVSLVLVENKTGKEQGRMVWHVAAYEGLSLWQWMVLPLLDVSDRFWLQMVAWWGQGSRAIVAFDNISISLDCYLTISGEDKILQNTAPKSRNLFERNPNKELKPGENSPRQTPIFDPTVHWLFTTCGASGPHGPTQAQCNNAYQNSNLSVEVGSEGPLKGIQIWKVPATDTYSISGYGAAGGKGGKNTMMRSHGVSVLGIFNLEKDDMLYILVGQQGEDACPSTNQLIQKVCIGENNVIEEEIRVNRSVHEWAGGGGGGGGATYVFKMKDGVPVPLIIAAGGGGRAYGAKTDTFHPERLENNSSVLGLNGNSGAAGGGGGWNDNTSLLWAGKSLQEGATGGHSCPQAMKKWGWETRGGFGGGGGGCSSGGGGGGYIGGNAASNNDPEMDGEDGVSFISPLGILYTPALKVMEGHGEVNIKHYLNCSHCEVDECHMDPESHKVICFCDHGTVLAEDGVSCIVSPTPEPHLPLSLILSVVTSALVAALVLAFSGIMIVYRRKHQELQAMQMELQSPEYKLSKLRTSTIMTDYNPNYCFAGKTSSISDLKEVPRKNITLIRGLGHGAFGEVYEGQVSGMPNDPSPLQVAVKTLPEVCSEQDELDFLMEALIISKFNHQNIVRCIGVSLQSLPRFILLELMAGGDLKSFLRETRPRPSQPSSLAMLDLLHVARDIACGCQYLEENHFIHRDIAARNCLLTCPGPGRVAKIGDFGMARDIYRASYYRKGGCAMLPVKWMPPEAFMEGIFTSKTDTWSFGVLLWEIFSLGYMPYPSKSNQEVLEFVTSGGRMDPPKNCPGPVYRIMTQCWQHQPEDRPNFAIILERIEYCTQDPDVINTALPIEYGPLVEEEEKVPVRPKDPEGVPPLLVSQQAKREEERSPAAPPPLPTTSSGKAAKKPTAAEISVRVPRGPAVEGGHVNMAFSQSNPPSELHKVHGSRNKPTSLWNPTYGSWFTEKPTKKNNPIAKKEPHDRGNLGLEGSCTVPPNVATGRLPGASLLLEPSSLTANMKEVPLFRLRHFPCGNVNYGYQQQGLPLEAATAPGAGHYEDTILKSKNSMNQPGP
Chain of UniProt Q8IVW4 (whole entry, looked up): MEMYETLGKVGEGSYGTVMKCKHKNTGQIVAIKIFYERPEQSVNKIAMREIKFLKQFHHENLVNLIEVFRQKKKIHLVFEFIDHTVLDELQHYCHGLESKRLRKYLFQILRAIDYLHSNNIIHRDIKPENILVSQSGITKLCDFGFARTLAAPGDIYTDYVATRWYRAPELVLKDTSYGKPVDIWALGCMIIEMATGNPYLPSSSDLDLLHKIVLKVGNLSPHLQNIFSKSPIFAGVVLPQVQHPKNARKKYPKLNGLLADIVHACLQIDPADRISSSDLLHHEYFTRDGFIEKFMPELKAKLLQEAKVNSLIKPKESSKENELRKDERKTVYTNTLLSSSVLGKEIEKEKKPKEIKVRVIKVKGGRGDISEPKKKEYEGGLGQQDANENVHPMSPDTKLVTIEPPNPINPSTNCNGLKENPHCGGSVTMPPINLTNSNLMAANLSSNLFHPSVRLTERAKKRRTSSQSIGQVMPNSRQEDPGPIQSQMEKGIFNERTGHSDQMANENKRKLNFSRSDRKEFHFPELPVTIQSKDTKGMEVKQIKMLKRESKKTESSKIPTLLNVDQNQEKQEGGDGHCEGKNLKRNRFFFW
Chain of UniProt Q13177 (whole entry, looked up): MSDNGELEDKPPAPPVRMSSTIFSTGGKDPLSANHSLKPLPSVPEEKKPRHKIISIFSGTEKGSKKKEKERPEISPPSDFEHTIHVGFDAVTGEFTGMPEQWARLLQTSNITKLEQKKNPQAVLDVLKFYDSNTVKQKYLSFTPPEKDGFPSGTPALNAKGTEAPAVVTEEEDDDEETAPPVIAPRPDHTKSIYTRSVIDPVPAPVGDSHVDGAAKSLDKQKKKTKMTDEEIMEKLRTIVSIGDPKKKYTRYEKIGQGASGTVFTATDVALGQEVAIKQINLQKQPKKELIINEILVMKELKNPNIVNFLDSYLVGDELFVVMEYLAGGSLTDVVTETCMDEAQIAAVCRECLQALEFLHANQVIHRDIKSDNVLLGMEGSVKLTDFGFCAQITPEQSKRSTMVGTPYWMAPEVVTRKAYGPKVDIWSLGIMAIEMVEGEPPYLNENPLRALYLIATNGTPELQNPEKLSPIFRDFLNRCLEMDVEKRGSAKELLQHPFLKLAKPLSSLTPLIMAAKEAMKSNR
Chain of UniProt P06239 (whole entry, looked up): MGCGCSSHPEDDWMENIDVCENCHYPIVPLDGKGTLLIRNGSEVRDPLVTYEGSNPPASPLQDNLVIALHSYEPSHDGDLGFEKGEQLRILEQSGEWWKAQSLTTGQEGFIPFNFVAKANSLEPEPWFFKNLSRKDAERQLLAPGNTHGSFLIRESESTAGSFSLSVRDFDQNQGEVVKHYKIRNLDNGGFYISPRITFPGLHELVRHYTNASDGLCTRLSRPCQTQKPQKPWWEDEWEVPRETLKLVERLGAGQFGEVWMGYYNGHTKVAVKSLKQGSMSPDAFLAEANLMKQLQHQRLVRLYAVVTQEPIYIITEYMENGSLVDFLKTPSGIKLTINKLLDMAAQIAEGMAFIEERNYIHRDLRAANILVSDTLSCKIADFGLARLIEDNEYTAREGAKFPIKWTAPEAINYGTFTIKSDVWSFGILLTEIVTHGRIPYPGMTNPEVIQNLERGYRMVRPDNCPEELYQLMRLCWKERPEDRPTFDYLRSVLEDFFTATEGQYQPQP
Chain of UniProt Q8TD08 (whole entry, looked up): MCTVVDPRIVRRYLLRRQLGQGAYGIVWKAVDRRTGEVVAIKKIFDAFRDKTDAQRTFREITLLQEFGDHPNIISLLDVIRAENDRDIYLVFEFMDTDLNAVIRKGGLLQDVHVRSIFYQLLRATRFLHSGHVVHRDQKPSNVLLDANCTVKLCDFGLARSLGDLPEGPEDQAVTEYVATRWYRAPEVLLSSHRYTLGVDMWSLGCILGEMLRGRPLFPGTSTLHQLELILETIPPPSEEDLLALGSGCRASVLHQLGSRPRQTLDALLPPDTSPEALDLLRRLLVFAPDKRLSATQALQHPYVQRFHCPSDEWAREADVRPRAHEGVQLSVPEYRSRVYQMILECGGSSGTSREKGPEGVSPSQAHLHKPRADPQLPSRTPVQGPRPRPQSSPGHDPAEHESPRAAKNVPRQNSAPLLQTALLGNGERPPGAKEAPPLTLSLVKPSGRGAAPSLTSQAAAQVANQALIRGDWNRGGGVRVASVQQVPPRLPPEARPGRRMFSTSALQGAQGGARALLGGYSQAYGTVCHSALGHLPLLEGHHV
Chain of UniProt Q9UF33 (whole entry, looked up): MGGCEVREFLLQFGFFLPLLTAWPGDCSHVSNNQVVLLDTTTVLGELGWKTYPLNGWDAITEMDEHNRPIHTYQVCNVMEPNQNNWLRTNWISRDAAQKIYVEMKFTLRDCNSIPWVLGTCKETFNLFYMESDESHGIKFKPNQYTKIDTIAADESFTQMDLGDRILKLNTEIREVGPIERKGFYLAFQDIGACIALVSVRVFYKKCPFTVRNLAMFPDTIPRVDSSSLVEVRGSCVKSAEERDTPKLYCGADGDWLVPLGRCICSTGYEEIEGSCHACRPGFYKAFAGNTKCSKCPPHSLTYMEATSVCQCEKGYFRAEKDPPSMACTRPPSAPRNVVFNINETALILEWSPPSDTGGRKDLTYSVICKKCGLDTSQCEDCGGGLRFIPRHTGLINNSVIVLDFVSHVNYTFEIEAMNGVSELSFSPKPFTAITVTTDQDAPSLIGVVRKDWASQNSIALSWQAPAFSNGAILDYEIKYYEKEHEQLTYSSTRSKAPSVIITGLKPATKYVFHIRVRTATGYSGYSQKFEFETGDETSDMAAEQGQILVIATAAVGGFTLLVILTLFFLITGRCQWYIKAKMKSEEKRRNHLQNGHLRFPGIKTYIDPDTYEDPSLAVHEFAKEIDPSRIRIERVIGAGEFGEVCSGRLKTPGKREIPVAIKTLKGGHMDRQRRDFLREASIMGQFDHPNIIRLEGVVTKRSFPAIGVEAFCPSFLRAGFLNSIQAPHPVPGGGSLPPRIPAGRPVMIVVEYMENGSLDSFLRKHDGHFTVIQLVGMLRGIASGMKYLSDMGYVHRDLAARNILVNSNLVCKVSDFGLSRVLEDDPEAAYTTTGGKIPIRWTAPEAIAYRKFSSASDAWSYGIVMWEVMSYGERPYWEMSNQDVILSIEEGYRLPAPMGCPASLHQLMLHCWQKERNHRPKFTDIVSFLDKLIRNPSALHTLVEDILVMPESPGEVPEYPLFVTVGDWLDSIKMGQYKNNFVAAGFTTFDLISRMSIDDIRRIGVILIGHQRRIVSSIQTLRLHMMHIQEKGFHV

Study 1
SMILES: CC(C)n1cnc(-c2ccc(F)cc2)c1-c1ncc(C(=O)Nc2ccc(N3CCN(C)CC3)cc2)[nH]1
Endpoint: patients with TEAE
phase 2a trial; patients with idiopathic pulmonary fibrosis; 60 mg once daily, atopic dermatitis, grade 5: 0%
refers to: hypothyroidism grade 5; idiopathic pulmonary fibrosis patients; 30 mg once daily: 0%
phase 2a trial; idiopathic pulmonary fibrosis patients; oral, 60 mg once daily, renal/urinary disorders, grade 1: 2%

Study 2
SMILES: O=C(NCc1ncc(C(F)(F)F)cc1Cl)c1ccc2c(c1)C1(CCS(=O)(=O)CC1)[C@@H](C1CC1)N2S(=O)(=O)c1ccc(F)cc1
Tested at: 1 µM
Endpoint: remaining binding
Cyclin-dependent kinase 2 (CDK2, Homo sapiens, UniProt P24941); cell-free assay, competition with immobilised ligand: 100%
Mitogen-activated protein kinase 15 (MAPK15, Homo sapiens, UniProt Q8TD08); cell-free assay, competition with immobilised ligand: 100%
Tyrosine-protein kinase Lck (LCK, Homo sapiens, UniProt P06239); cell-free assay, competition with immobilised ligand: 100%
Cyclin-dependent kinase-like 3 (CDKL3, Homo sapiens, UniProt Q8IVW4); cell-free assay, competition with immobilised ligand: 100%
Ephrin type-A receptor 6 (EPHA6, Homo sapiens, UniProt Q9UF33); cell-free assay, competition with immobilised ligand: 100%
ALK tyrosine kinase receptor (ALK, Homo sapiens, UniProt Q9UM73); cell-free assay, competition with immobilised ligand: 73%
Serine/threonine-protein kinase WNK2 (WNK2, Homo sapiens, UniProt Q9Y3S1); cell-free assay, competition with immobilised ligand: 0%
Bone morphogenetic protein receptor type-1B (BMPR1B, Homo sapiens, UniProt O00238); cell-free assay, competition with immobilised ligand: 85%
Serine/threonine-protein kinase PAK 2 (PAK2, Homo sapiens, UniProt Q13177); cell-free assay, competition with immobilised ligand: 84%
Serine/threonine-protein kinase SIK1 (SIK1, Homo sapiens, UniProt P57059); competition binding: 89%

Study 3
Target: TAR DNA-binding protein 43, full length, His tag (TARDBP, Homo sapiens, UniProt Q13148, residues 1-414)
Technique: RNA Bind-n-Seq
Form: RNA
Sample: in vitro
Tested at: 20 nM
Notes: 6-mer, flanks averaged, single round
Together with: 150 mM LiCl
Baseline: input library
Reading: higher = stronger binding
Endpoint: 6-mer enrichment (R)
GGUUGC: 1.12
AGAAGA: 0.919
GAUUUC: 0.852
GCAGAG: 1.02
GUAACC: 0.884
AAAGAG: 0.936
CACUAG: 0.834
UCCCGA: 0.912

Study 4
Target: Interferon regulatory factor 7, full length, phosphomimetic (IRF7, Homo sapiens, UniProt Q92985, residues 1-503, S101K/S471D/S472D/S475D/S476D/S477D/S483D/S484D/S487D)
Technique: protein-binding microarray
Form: double-stranded DNA, one strand shown
Sample: in vitro
Tested at: 250 nM
Notes: 60-bp whole probe
Together with: salmon DNA 0.4 mg/ml
Baseline: random background probes
Reading: higher = stronger binding
Endpoint: log fluorescence
Shared flanks, not repeated: GCCTAGCAC … GTCTTGATTCGCTTGACGCTGCTG
Residues (chain): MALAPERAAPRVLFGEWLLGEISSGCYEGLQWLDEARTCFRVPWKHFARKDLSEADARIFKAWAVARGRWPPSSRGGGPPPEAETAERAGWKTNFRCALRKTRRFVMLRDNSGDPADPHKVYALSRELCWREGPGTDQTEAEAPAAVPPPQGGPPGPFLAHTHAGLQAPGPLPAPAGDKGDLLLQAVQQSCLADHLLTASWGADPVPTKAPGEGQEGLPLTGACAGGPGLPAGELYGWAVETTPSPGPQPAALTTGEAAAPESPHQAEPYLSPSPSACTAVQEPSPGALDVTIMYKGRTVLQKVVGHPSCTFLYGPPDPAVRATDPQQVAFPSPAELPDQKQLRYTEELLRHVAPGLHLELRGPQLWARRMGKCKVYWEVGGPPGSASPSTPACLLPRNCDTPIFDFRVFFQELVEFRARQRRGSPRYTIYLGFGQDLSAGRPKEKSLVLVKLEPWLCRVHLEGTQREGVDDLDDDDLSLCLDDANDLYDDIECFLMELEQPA
GACGGTTTCCTTTCCCAGACGTGCTAG: 4.82 z-score
TCAATTCTGAAAATGGAACTGTGCTAG: 0.525 z-score
GACGAACTGCTTCTCCTGACGTGCTAG: -0.185 z-score
TTAGGTTTGGGTTTCGGTTAGTGCTAG: 7.11 z-score
TCACTTCTGGACTGTTTGACTGTGCTA: 0.414 z-score
TCAATTCCTGATCTCTGACTGTGCTAG: 0.93 z-score
TCAATTTTTACTTTCTGACTGTGCTAG: 0.797 z-score
GACGGATTCGACACTGGGGACGTGCTA: 0.015 z-score
